# Measured values pooled from the literature.
# Parts stem from different laboratories: compare values within a part only. Substitutions count along the parent as printed.

# Series 1 — technique: universal PBM; form: double-stranded DNA, one strand shown; sample: in vitro; concentration: 600 nM; reading: higher = stronger binding
# Target: Sal-like protein 4, full length isoform A (SALL4, Homo sapiens, UniProt Q9UJQ4, residues 1-1053)
# Sequence of UniProt Q9UJQ4 (whole entry, looked up): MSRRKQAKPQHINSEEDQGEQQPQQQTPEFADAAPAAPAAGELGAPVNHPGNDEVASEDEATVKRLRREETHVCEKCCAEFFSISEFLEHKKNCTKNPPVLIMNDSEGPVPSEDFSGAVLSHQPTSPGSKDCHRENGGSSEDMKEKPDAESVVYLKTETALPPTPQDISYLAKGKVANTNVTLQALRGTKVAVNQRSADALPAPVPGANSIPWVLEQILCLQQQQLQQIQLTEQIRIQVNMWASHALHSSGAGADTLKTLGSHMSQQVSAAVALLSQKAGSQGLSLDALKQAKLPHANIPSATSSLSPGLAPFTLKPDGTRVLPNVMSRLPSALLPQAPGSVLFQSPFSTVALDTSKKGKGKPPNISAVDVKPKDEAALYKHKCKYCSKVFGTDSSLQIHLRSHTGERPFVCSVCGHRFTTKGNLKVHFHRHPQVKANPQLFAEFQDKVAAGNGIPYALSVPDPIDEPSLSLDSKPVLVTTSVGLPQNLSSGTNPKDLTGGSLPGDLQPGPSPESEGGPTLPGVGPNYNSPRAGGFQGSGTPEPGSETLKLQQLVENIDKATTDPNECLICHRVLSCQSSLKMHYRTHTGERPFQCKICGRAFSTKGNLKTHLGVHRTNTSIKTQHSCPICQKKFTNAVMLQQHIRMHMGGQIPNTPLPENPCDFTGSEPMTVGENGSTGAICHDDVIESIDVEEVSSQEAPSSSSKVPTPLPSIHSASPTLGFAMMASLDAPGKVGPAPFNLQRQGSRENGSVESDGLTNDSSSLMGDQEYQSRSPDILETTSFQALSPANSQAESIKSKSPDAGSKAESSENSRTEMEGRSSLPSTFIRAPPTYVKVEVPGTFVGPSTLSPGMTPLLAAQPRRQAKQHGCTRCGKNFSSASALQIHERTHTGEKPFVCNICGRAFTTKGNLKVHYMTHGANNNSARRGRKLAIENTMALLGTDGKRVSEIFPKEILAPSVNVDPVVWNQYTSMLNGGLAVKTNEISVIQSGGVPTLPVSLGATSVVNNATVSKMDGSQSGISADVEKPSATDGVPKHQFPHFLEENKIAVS
# Setting: 8-mer, flanks averaged, mean of replicates
Oligonucleotide,E-score
GTTGTCCA,0.0587
AAGAACAC,-0.00407
ACGTTGTC,-0.108
CGTTGACC,-0.0901
AAGGGCCC,-0.249
CCTCTTGA,0.0469
AGGATGCC,-0.177
CTTAGTAA,0.141
AATCTCCA,0.0812
TCCCTAAA,0.168
ATCGGAAT,0.156
AAATCAAG,0.183
ATCTACGC,0.177
CCAGCGTA,-0.093
CCGTGGTA,-0.0777
AGAGTGTA,0.0153
GGAACGTA,-0.0133
AGCAGTAA,0.079
AATTTGCA,0.203
CGGACACG,-0.283
CGGGGCTC,-0.341
CCTTTACA,0.0689
AGTGCGAT,0.0513

# Series 2 — technique: EMSA with sequencing; form: double-stranded DNA, one strand shown; sample: in vitro; concentration: 10 and 20 nM; relative to: negative control set to 0; reading: higher = stronger binding
# Target: Hepatocyte nuclear factor 3-alpha (Foxa1, Mus musculus, UniProt P35582, residues 1-468, full length assumed)
# Setting: whole designed probe, mean of two concentrations, ends assumed
# Shared flanks, not repeated: GTGAGCGGTGCCCATTGATGGGGAAC … TTTCACTGGGATCGTGGGGAC
# Target sequence (chain): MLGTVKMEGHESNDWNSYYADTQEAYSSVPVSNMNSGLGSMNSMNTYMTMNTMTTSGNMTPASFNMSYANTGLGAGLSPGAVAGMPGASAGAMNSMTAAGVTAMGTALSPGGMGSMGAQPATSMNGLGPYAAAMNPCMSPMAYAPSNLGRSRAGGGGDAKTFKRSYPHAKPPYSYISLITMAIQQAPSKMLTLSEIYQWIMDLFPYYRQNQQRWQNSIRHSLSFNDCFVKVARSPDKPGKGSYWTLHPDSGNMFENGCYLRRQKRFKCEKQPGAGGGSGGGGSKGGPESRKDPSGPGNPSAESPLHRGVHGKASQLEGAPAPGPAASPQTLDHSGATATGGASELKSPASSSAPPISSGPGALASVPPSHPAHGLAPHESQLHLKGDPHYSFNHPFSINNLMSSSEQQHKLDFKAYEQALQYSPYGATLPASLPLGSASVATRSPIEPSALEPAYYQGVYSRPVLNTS
Oligonucleotide,normalised bound fraction [ratio]
ATGTGGGAACTAATTGAGGACCATGTTTACAATGCGTACAAATCATAAATCAATTAGTTCATACAAGGAAGAAATTGATTTACAAAAAGTATTTGTTTACATTGATACTGTCCATGTAAACTTTTTTCAATTCAAAAGAAACACATAGTTCTGTCATAAAGTAGATTTTCTATCCCTTTTATTTTCTGAGCTT,0.409
ATCTTCCCCCTCTTCCTTGCCCCACCAGCTCACCTTCCCGGGTTATTTGCAGATAGGAAAATAAATAAAGCCGGCATTCGTTAACCCTCTTCTGGCGCAAACTGCTGTTTGCTCTGGTCCTTTGGCGACGCCGATGAATCATGAGGCTCCGGGAGAGCAAAGCACCGTGTCAGGGCCATGATCCGGGGTGGCC,0.408
TTAATAAAGCAGCAAGACCAGAGGTTGGGTTCTTGTATTGTTGCTTGAAGCAGTGTTAAAGATACACCGACATGACTAAAATGCATTGCTGAGTAATCTAGCACGGATTTTAAAGTTTAATATGATTAATGCAACTTGATGCCAAACTCTGAATGTCTCCTAAGGCTTCCAAGTTACTGAAAAGCAGCCAATA,-0.0667
AGGCACAAGGTATGAATCACTAAGAATCTAGCAGCAGCTCTAGAAGCCTCCAAAGATAATTGCACTTCCCCAACGGGGGTGGAGTAGGGGGACGTAAATATGAAAGAACAGTGGATGGCCTAAATCAGTATGTGTCACTCTTTGTAAAGAGCCACAAGTGTTTGACTAGGGAAAAAGGAAAAGAGGCGAGAGT,0.0315
CTGTTAATTTTTGTTTGCTTGTAATACACATTTTTATGTAACTGGGAGTAAGGAACATCTTAGGAAAAAGAAAACAAAAAATAAAATTTCGCTGTTTACACTGTGCCTTGGTCCAGTAACCCTGCACTGCACATATACACTTTAAATTGGTGCCTTGGGGAACCACTTCGGTATTTCTTTTTTTTTTTTCTTT,0.269
ATCTTCCCCCTCTTCCTTGCCCCACCAGCTCACCTTCCCGGGTTATTTGCAGATAGGAAATTAATATAAGCCGGCATTCGTTAACCCTCTTCTGGCGCAAACTGCCAGAGCAAACAGATGAATCATGGTCCTTTGGCGACGCCAGGCTCCGGGAGAGCAAAGCACCGTGTCAGGGCCATGATCCGGGGTGGCC,0.223
CTGTATGTCATCTTGCTCCTGGGCCACCTGACTGATGTTTAATGCCTGGATATTTGCTTTCACCTCTGCATGACCAAGCCTTGGCCAAGTCACTGTTGACTCAGTTGCAACATCTGTCCCCTGCTGAGGGCTGTTGTAGCTTTCATAGCTCACAGTCCAGCTTGAATCTAACCTTTTCTGTGGTCATTCAGAG,0.255
AGGTATTTTGCTGCCACACTGATAGTTCAGTGAATTGCACTTTTGGATCTTGGAGAATGGAGAGAAGCAGCTAGGCAAATAATTGGCAAGAAAAGTAATCTGTTACAGTGCAGCTTAGATTACCCACTCTGCCTATCTGCGTTTCTGAAATTGGATTCCTTGGCTCTGTGAACTAGTTAGCCTTCCTTTAGAG,0.0716

# Series 3 — technique: RNA Bind-n-Seq; form: RNA; sample: in vitro; concentration: 365 nM; relative to: no-protein control; reading: higher = stronger binding
# Target: RNA binding protein fox-1 homolog 2, RRM domain, GST-SBP tag (RBFOX2, Homo sapiens, UniProt O43251-10, residues 100-194)
# Setting: natural RNA segment, single round, ends assumed
# Shared flanks, not repeated: GGGAGUUCUACAGUCCGACGAUC … UGGAAUUCUCGGGUGCCAA
# Residues (chain): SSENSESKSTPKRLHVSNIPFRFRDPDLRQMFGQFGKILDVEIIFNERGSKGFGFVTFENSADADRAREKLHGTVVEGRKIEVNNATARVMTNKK
Oligonucleotide,RBNS enrichment (R)
AGCAGACAUAGAAGAGCCAAGAGUCCAGGAGGCCCUGGUCCUGGCCUCCUUCCCCGUACUUUGUCCCGUGGCAUUUCAAUUCCUGGCCCUGUUCUCCUCCCCAAGUCGGC,0.579
CUUUGAGAGAGGGUUUGGAGGGCAAGGGGCUGCAUUCCUCUGAGGGACUUGGCCUGAGGCCUUUCGGGCCUCUCCAGUGGGUUCUGUUUAUCCUCUCAUGGGUGAUUAUC,0.275
ACCCUCAAAGAUGCUACUGGGCUUCCUGUGCAUCGCAUUGCUAAAGAGAACUGAUUUCCUAGCAUUCUUCCCUAGUAAAAUCUUUCCCAAUAGAACAGUAUGUUCCCUUA,1.36
UUGGUGGGGCUGGCACGAAUCCAGAUCUGGAUCCUACAUCUGUUGGGUCUUAGGCCUCCUUCCCUCCUCAGUGUCUUUCAAAUGACUUUCAUCAAAUGACUUUCAAAAUA,0.427
CACCCACCACCUUGCCCGGCUAAUUUUUUUGUAUUUUUAGUAGAGACAGGGUUUCACCAUAUUAGCCAGGAUGGUCUCGAUCUCCUGACCUCGUGAUCCGCCCACCUCGG,0.256
AUGCUGGGAAGCGGCAACUUUGGGGUUGAACUUACUUGAAUGGAUUAAAAAUUGCAUUGUGUUACAGAGCUAGAAAAUUUUAUGUAUGAAAAACGAUAAUAGCCUUACAC,11.2
UUCUUGCGUAGUUAUGACCAUUGAAUUUAGUUCCCAACAUUCUUUUUGGGUGGCUCGAAACUUCCUGUAACUCCAGCUCCUUGGACAUCCAAUAUCUCUGGCCUGCACAC,0.385
GAAACCCAGCGCGCAGUUCUCUUCUGUCAGCUUGUUUUUUUUAGAGUAAAAGGAAGAGAAAUAAAAGUUCAUGAGCUGUCUGGUCAUUGGGAUUAGGAAGCAGGUGUGGG,0.721
GGAAGGAUCAUCAACCAUCUAAUCAAAAUGGAUCUGGAUUAUUACUCUGUAAAAUUCACAGCAGUAAAUAUUGUUUUGUUGAAUGUAUUAACAUCUUAUGGUCUGAAAAU,0.362
GAGAGCCAACCUAUAGUUUAACAGCUUAGGUAAGACUCACUCUGCCCAUGCUGGCCAGGGGAACCCUCAGGGGACUCCUCUGGGUGAAGGGCAGAUGCUAGCACUGCCUG,0.221
AGAGUCACAAUGCAACCUAAAGUAGUUCAUGUAAGAAACAGAAUAUUUUGUCCUUUCUUCUCAUACUAAAGUGGAUCAUAGAAAAGUAAAAUAAAUUAUUUGAAAAAUGA,0.538
CUAUGCUCAGAUGUCAGAUCCUCUUGUUAUUAGUGUGUCUUGUUCUGCACAGUGCAGGAGACUUUAUUCCUUUGGAAAAUUCACUGUUCCACAAACAGCAGGCUGAAUGG,0.501

# Series 4 — target: CCNA1, cyclin fold, Cln2 fusion (human); technique: yeast growth competition, sequencing; sample: yeast; setting: weak parent motif; relative to: not given; reading: higher = stronger binding
# Starting sequence: RB1 docking peptide (human); PKPLKKLRFDIEG; partner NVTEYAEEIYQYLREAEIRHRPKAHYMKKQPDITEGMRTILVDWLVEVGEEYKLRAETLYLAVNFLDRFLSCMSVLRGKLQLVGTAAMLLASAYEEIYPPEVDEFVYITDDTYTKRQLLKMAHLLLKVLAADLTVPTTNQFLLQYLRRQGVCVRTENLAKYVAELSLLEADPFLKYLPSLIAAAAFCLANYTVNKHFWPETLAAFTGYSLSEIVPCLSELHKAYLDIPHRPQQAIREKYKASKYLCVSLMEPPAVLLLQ
Substitution,normalised enrichment score
G13Q,0.391
L4T,0.00754
L7K,0.475
K2R,0.443
K5L,0.0221
K5I,0.26
E12I,0.618
G13E,0.452
F9V,0.0766
I11P,0.249
L4K,-0.228
R8E,0.279
P1Y,0.0266
E12D,0.151
F9W,0.234
R8I,0.0957
P1F,0.658
G13H,0.433
K5A L7A,0.0596
F9Q,0.267
I11S,0.445
I11E,0.418
E12Y,0.562
K2D,-0.0019
R8P,0.377

# Series 5 — technique: protein binding microarray; form: double-stranded DNA, one strand shown; sample: in vitro; concentration: not given; relative to: not given; reading: higher = stronger binding
# Target: Histone acetyltransferase KAT6A, both winged helices, GST fusion (KAT6A, Homo sapiens, UniProt Q92794, residues 1-181)
# Setting: 8-mer, flanks averaged, mean of 2 arrays, mostly near background
# Construct (chain): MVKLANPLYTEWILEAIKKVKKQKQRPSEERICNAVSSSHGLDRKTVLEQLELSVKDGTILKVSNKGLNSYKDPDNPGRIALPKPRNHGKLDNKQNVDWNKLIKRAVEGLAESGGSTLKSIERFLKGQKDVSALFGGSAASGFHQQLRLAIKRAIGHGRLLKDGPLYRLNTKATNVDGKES
Oligonucleotide,E-score
ATATTCAT,-0.089
TGCTGGAA,-0.075
ATGTACGA,-0.111
CCTGACAA,-0.242
GTTGGATA,-0.125
GTCGCCGA,0.257
CATACCGA,0.0263
TAAATGTA,-0.0741
ACACGATC,-0.0126
ACTGCCCA,-0.256
CATCGAGG,-0.13
CAACTTCC,-0.0884
ACTCTCGG,0.0616
AACTGCAA,-0.0527
CGGCAACC,0.282
CGAAGAAA,-0.0715
CGTATTCA,0.176
ACTAAGCT,-0.245
CCCACAGC,-0.18
ACACATCG,-0.132
ACGCACTA,0.114
CGTGGTAG,-0.0325
CTCGTGTC,-0.0541
ACATCGCG,0.259
GCCTGCGC,0.253

# Excerpt of the above (series 1):
Oligonucleotide,E-score
CCTCTTGA,0.0469
AGGATGCC,-0.177
CTTAGTAA,0.141
AATCTCCA,0.0812
TCCCTAAA,0.168
ATCGGAAT,0.156
AAATCAAG,0.183
ATCTACGC,0.177
CCAGCGTA,-0.093
